Measured values collected from several papers.
Parts stem from different laboratories: compare values within a part only. Changes are numbered by the printed parent chain.

Study 1
Target: Histone acetyltransferase KAT6A, winged helix 1, GST fusion (KAT6A, Homo sapiens, UniProt Q92794, residues 1-85)
Technique: protein binding microarray
Form: double-stranded DNA, one strand shown
Medium: in vitro
Tested at: not given
Setting: 8-mer, flanks averaged, mean of 2 arrays, mostly near background
Relative to: not given
Direction: higher = stronger binding
Residues (chain): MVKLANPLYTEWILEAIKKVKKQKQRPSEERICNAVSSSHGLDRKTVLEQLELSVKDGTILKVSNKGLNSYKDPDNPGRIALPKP
| Sequence | E-score |
| --- | --- |
| CAAACGGA | 0.151 |
| CGACTACG | 0.174 |
| GATGTTCA | -0.139 |
| ATACACGA | -0.0387 |
| CGTGGCGA | 0.136 |
| CGAATTCA | 0.00645 |
| AATATGGG | -0.189 |
| ACTGATCA | -0.117 |
| GAATTTGA | -0.0638 |
| AGTTTTTG | -0.242 |
| CTACAGCA | -0.14 |
| CGGGCAAC | 0.278 |
| CAAAGGAG | -0.0962 |
| TACTCCCA | -0.0908 |
| AGTGACGC | 0.0585 |
| AACTACTT | -0.0793 |
| AGTTTAAC | -0.158 |
| GTTTTGCA | -0.185 |
| GTGCTTTA | -0.196 |
| GTACAGCA | 0.0151 |
| GCGAACGC | 0.321 |
| CGAAAGAC | 0.0606 |
| GTATTATA | 0.0474 |
| AGCGAGTG | 0.0259 |
| GCACTAAC | 0.0976 |

Study 2
Target: Prothrombin, mature alpha-thrombin (F2, Homo sapiens, UniProt P00734)
Technique: aptamer microarray, sandwich
Form: DNA with 2'F-ANA
Medium: in vitro
Tested at: 200 nM
Setting: whole 15-mer aptamer, many near background
Added: Cy3 exosite-II aptamer, 400 nM
Direction: higher = stronger binding
Sequence: GGTTGGTGTGGTTGG
| Modification | mean fluorescence intensity |
| --- | --- |
| 2'F-ANA at 1 4 13 14 | 53.7 a.u. |
| 2'F-ANA at 4 5 13 | 53.6 a.u. |
| 2'F-ANA at 1 2 3 6 7 8 10 13 14 15 | 52.9 a.u. |
| 2'F-ANA at 2 3 8 11 12 15 | 1060 a.u. |
| 2'F-ANA at 2 4 5 10 | 51.7 a.u. |
| 2'F-ANA at 2 3 5 6 10 12 13 | 54.7 a.u. |
| 2'F-ANA at 4 5 9 11 12 13 | 118 a.u. |
| 2'F-ANA at 2 3 7 9 12 13 14 | 501 a.u. |
| 2'F-ANA at 1 2 5 6 7 8 9 10 14 | 53.8 a.u. |
| 2'F-ANA at 3 7 8 9 11 14 15 | 690 a.u. |
| 2'F-ANA at 1 2 3 5 10 11 15 | 80.9 a.u. |
| 2'F-ANA at 2 3 5 6 8 13 14 | 168 a.u. |
| 2'F-ANA at 2 3 5 6 7 8 10 11 12 | 58.7 a.u. |
| 2'F-ANA at 1 2 3 4 5 6 7 9 11 12 14 | 72.2 a.u. |
| 2'F-ANA at 1 4 5 7 8 10 11 13 15 | 49.2 a.u. |
| 2'F-ANA at 3 7 8 10 13 14 15 | 539 a.u. |

Study 3
Target: ABI1, truncated, D143A, DHFR fusion (Arabidopsis thaliana)
Technique: DHFR PCA, deep sequencing
Medium: yeast
Setting: methotrexate growth selection, single substitutions
Added: (+)-ABA 0 µM
Relative to: wild-type fitted maximum
Direction: higher = stronger binding
Parent: PYL1, truncated, DHFR fusion (Arabidopsis thaliana); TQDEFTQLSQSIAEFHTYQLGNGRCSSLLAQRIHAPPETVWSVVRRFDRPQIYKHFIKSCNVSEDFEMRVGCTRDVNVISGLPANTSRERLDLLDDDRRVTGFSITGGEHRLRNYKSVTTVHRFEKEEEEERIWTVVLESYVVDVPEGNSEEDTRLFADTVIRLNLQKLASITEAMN
| Variant | relative binding score [%] |
| --- | --- |
| F47Q | -1.57 |
| G108W | -1.91 |
| I79G | 1.7 |
| H110F | 15.7 |
| D97G | 8.12 |
| I79C | 31.8 |
| V76T | -0.347 |
| E129Q | 15.7 |
| Q2R | 19.7 |
| T73Y | 50.8 |
| D96S | -1.94 |
| T73Q | 1.92 |

Study 4
Target: RNA binding protein fox-1 homolog 2, RRM domain, GST-SBP tag (RBFOX2, Homo sapiens, UniProt O43251-10, residues 100-194)
Technique: RNA Bind-n-Seq
Form: RNA
Medium: in vitro
Tested at: 365 nM
Setting: natural RNA segment, single round, ends assumed
Relative to: no-protein control
Direction: higher = stronger binding
Target sequence (chain): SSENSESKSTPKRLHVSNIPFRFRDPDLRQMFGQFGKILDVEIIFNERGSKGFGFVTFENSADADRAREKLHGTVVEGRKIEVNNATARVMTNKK
| Sequence | RBNS enrichment (R) |
| --- | --- |
| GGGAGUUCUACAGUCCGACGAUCGAAAAGAGGGAGAUGUUUUGUCCAGACCUACUAGACCCAACAGAAAAGGUUUUUGUAUUAGAAUCUGUUUCCUUAAAAAUUGAUUUGACUCCUGUUCUUAAACACAAGUGUGGAAUUCUCGGGUGCCAA | 0.291 |
| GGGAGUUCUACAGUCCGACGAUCUUUCCUCCCCACCCCACUCCCCAAAUACAGAGGUCUGCUUUGAAGCGGAGACCAUUUCCAGGCCUUAUUGAGACCAGACCCCAAGUCCCCCACCCCCAUCCUGCUCCAGCUGGAAUUCUCGGGUGCCAA | 0.47 |
| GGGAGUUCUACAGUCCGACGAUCUGAACACUUUGCUGCUUAGAAAUUUCUUCCGCUAGUUAACCUAAAUCAUCUCUCUCAAGUUCAAAGUUCCACAAAUCCCUAUGGAAGGGGCAAAAUGCUGCCAGUCUCUUUGGAAUUCUCGGGUGCCAA | 0.892 |
| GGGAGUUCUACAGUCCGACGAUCAAAUAACAUCAAGUAACAUCUGUAUCAGGCCCUACAUAGAACAUACAGUUGAGUGGGAGUAAACAAAAAGAUAAACAUGCGUGUUAAUGGCUGUUCGAGAGAAAUCGGAAUGGAAUUCUCGGGUGCCAA | 0.318 |
| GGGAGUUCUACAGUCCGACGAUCAAGCUCUGAAGUUCUUCCUGCUGGCACCAAAUAUUAGGAUUACAAGCUGUCUCUCUGACACCAGUGGUAAAAAAGCAAGUAGAAUAGUUUCUGAGUCUGUGUUGCAGCCUUGGAAUUCUCGGGUGCCAA | 0.346 |
| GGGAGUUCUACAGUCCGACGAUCGAGGGAACAGCCUCCUGGGUCUUCCUUCUGGUCAUCUCCUUGGGGCAGCACAGGACCACUUCAUGGCUGUCUAGUUAUGGUCCCUGGAGGGCUAUUUGCCCACCUUCACUUGGAAUUCUCGGGUGCCAA | 0.156 |
| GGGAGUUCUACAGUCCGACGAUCAACCAUUCAGGGUGAUUUUUCUUGUCAGUGGACAGUGACGAACAGAGAUUUGAAAUCCCUUACCUCCAAUAAUAAGCCAUUCAGCCUAAAUUCAUUUUUAUGAAUAAAUCUGGAAUUCUCGGGUGCCAA | 0.382 |
| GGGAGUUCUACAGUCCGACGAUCUAAUAAUCUGUGCCAACUCUACCUUCUCACUUUUACCUCUGACGUCAUUCUUUUUUUCUGAAAGAGGUAAUAAUUCUAGUUUUGAUAGACUCUGAGGAUUAUGUGAACAGUGGAAUUCUCGGGUGCCAA | 0.374 |
| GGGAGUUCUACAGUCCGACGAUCUCCUCCUAUACUUCCUUGUUGCUCUAUAAGAAGUUGGUUGCCCAGAAACAAGAAGAAACAUUGUGAUUGCGAAGUGUCAUUUUGUUUUUUUUUUAAAUAACAUGUAUUAUUGGAAUUCUCGGGUGCCAA | 0.604 |
| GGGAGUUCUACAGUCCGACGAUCGAUAAUUGGUGUGAGGUUGAAAUCCCUGGUUCCUGGAGGACAGACAACCUGACCUCCGACUGUCAGUUUCCCUUGACACCAUCUUCAUAGAAAUACCUGACUCCUGUACCUGGAAUUCUCGGGUGCCAA | 0.16 |
| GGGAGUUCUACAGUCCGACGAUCAUGAAAGACUCAUUGUCUUUGUAUUCAGCUCUUAAAUAGUGUAACUAUAUCCCCACCUCUGCUUGCUUUCUUUCCCUCCCCUCCAAUGAUAAAGAAAAUGAUAAAUUUUCUGGAAUUCUCGGGUGCCAA | 2.81 |
| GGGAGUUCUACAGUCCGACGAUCUGGUAAUAUCUCAAAGAAAUGAACUUGUAGAUUACCAAGCAGUUUGCUAAAAAUUCAAUCUUUGACCCAAGCUGUAGCAUUUUUUUUUCAUGUGUGGCAUCUUUUUCAUGUGGAAUUCUCGGGUGCCAA | 1.25 |

Study 5
Target: Interferon regulatory factor 7, full length, phosphomimetic (IRF7, Homo sapiens, UniProt Q92985, residues 1-503, S101K/S471D/S472D/S475D/S476D/S477D/S483D/S484D/S487D)
UniProt Q92985, sequence (whole entry, unmodified, looked up): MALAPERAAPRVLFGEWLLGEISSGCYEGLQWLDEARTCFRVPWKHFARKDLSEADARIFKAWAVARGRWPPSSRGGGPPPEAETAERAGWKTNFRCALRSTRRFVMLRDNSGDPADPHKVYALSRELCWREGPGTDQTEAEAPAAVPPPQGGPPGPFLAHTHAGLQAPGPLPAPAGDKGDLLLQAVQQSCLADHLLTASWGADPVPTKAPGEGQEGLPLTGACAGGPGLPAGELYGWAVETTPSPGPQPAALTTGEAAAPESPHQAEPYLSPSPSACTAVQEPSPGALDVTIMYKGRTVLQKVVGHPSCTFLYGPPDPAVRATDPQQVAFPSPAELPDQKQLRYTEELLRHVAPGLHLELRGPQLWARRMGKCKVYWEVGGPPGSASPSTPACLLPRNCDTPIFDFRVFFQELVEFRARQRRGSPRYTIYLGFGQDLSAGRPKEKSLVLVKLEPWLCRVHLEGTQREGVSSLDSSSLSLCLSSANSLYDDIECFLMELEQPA
Technique: protein-binding microarray
Form: double-stranded DNA, one strand shown
Medium: in vitro
Tested at: 250 nM
Setting: 60-bp whole probe
Added: salmon DNA 0.4 mg/ml
Relative to: random background probes
Direction: higher = stronger binding
Shared flanks, not repeated: GCCTAGCAC … GTCTTGATTCGCTTGACGCTGCTG
| Sequence | log fluorescence [z-score] |
| --- | --- |
| TTAGATCTCAGTTTCGTTTAGTGCTAG | 9.01 |
| TTAGGTATCGGTTTCGGTTTGTGCTAG | 13.2 |
| TTAGATTTCAGGCTGGATTAGTGCTAG | -0.241 |
| GACGGTATCGACCTTCGGGACGTGCTA | -0.209 |
| GACGACTTCAGTTCCGAGACGTGCTAG | 0.323 |
| GACGGACTCGACTTTCGGGACGTGCTA | 1.79 |
| TTATGTATCGGTCTCGGTTAGTGCTAG | 1.86 |
| TTACATATGTTTTTCATTTTGTGCTAG | 1.79 |
| GACGGTTTCGGTAACGGGACGTGCTAG | 4.03 |
| CCACCACCAACACCAGTCATGTGCTAG | -0.322 |
| CCATCGATTTCTCTTTCCCAAGTGCTA | 1.26 |
| GACGGTCTCCTTATCATGACGTGCTAG | 0.144 |
| GACGGTATCGGTTTCGGGATGTGCTAG | 7.85 |
| CCTTGTACGTCGTTTCCCAAGGTGCTA | 1.03 |
| TCATTTTTTTCTTTTATACTGTGCTAG | 1.6 |

Study 6
Target: Sal-like protein 4, full length isoform A (SALL4, Homo sapiens, UniProt Q9UJQ4, residues 1-1053)
UniProt Q9UJQ4, sequence (whole entry, looked up): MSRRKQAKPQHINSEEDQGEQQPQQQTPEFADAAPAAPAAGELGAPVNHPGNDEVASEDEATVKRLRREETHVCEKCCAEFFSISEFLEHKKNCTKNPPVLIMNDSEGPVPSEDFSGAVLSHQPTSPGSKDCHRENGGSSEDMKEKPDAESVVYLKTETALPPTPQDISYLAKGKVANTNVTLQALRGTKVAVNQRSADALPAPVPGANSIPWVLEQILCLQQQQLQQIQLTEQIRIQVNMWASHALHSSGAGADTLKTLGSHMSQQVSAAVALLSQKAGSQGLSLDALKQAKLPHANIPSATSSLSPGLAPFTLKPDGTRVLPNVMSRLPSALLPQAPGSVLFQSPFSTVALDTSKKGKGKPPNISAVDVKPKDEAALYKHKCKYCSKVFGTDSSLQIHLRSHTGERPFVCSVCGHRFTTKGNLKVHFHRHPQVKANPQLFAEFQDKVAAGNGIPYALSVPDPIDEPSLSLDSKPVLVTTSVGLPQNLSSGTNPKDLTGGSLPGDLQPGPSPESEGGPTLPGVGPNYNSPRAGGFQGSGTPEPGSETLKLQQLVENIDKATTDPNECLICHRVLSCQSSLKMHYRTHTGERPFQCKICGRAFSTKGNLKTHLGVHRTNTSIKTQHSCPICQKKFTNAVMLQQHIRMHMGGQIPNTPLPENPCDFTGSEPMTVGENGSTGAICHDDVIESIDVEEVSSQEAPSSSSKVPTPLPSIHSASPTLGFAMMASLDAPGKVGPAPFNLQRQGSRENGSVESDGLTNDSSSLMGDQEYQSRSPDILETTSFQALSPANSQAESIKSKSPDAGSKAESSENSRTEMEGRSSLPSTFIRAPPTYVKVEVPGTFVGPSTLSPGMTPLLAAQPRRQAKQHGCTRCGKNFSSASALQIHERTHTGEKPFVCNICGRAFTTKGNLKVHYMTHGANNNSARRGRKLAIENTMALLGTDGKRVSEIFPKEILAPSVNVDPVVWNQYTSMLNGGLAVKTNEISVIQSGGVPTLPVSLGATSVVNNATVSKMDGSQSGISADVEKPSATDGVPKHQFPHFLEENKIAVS
Technique: universal PBM
Form: double-stranded DNA, one strand shown
Medium: in vitro
Tested at: 600 nM
Setting: 8-mer, flanks averaged, mean of replicates
Direction: higher = stronger binding
| Sequence | E-score |
| --- | --- |
| ACCAATCA | 0.0963 |
| AGTTCCTA | 0.0662 |
| ATTTAGCA | 0.259 |
| GAGTACTA | 0.117 |
| CAGGCTAG | -0.201 |
| GATAATCC | -0.0318 |
| CACCTCGC | -0.218 |
| CTCTGGAA | -0.0748 |
| GAAATGAA | 0.266 |
| CGCGTTCA | -0.0903 |
| AGGTGTTA | 0.0656 |
| CCGCCTAA | -0.159 |
| AGGCATCC | -0.122 |
| ACACGAAA | 0.1 |
| GCAAAACA | 0.131 |
